Measured values collected from several papers.
Protocols differ between the studies behind these lines. Several values in a cell are separate wells, animals, samples, runs or records. ± marks the error that the study gave.
fimH lectin domain: Type 1 fimbrin D-mannose specific adhesin, lectin domain (fimH, Escherichia coli K-12, UniProt P08191)
UniProt P08191, sequence (whole entry, looked up): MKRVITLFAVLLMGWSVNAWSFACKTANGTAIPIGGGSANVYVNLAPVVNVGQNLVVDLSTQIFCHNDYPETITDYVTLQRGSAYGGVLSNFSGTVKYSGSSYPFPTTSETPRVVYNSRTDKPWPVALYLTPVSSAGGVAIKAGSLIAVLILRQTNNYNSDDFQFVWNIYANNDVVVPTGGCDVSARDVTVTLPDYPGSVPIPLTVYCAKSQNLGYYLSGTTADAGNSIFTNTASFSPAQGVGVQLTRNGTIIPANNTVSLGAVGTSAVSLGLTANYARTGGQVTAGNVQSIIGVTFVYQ
DRD4: D(4) dopamine receptor (DRD4, Homo sapiens, UniProt P21917)
UniProt P21917, sequence (whole entry, looked up): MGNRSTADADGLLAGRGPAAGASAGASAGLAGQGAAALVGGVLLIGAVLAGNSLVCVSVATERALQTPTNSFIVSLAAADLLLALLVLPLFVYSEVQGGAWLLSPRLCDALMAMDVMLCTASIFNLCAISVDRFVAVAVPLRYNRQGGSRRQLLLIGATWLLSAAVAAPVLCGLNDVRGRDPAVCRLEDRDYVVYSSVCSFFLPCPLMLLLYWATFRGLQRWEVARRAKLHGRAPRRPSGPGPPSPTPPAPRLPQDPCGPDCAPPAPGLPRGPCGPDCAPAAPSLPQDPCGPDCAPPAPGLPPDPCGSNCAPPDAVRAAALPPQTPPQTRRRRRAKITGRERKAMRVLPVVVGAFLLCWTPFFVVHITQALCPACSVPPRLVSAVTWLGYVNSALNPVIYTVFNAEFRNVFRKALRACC
TOPBP1: DNA topoisomerase 2-binding protein 1 (TOPBP1, Homo sapiens, UniProt Q92547)
UniProt Q92547, sequence (whole entry, looked up): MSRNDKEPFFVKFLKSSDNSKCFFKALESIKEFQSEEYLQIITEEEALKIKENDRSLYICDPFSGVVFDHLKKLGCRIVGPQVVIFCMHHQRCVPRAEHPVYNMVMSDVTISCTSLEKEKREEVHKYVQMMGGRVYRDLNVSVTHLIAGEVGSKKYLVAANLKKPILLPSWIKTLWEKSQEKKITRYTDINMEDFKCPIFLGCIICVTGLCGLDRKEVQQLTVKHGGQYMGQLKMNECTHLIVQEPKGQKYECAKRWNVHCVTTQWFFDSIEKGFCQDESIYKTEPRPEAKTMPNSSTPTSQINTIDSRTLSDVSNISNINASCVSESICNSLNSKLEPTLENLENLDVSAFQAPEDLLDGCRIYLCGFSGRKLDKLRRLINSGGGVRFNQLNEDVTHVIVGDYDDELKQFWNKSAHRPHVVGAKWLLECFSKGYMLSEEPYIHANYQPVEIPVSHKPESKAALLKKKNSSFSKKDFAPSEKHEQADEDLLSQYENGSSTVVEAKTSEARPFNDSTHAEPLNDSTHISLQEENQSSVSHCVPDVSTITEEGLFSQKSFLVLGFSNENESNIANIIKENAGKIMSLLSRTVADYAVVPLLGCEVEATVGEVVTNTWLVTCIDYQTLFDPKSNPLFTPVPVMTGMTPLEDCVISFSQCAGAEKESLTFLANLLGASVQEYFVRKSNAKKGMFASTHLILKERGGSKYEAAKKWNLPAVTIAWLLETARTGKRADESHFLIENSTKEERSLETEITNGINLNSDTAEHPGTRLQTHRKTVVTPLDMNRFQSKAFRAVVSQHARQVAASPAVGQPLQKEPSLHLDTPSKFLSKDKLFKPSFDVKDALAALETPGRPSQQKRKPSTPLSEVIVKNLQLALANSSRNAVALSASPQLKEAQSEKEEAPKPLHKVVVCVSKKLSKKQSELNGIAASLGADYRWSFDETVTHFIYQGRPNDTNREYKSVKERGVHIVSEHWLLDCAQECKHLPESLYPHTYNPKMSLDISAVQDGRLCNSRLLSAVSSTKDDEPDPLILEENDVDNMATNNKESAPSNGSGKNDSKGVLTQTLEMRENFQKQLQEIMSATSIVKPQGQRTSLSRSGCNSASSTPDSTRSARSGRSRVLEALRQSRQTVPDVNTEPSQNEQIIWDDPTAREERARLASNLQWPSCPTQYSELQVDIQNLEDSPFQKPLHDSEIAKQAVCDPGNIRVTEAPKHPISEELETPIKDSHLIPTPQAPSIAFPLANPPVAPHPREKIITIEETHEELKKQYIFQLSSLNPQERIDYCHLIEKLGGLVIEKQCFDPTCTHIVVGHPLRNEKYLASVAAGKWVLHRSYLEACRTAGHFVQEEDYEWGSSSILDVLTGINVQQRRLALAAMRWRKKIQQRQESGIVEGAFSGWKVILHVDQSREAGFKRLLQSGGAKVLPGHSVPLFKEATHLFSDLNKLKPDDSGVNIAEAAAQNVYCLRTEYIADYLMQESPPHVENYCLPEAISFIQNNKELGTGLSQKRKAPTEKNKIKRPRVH
UniProt P02716, sequence (whole entry, unmodified, looked up): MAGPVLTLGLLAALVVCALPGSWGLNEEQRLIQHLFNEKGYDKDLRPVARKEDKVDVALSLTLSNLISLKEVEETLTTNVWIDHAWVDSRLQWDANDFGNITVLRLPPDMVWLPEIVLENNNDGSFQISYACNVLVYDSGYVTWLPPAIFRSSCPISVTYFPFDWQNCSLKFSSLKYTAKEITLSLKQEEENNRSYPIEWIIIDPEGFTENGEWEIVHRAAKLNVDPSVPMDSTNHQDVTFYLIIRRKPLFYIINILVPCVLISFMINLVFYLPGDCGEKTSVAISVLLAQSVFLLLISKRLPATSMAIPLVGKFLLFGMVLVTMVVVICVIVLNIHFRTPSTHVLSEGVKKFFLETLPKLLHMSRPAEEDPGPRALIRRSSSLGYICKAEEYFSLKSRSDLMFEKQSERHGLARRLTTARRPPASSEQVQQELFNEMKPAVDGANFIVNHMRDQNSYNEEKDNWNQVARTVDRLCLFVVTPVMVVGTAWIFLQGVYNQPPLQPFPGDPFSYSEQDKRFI
UniProt Q9ULX7, sequence (whole entry, looked up): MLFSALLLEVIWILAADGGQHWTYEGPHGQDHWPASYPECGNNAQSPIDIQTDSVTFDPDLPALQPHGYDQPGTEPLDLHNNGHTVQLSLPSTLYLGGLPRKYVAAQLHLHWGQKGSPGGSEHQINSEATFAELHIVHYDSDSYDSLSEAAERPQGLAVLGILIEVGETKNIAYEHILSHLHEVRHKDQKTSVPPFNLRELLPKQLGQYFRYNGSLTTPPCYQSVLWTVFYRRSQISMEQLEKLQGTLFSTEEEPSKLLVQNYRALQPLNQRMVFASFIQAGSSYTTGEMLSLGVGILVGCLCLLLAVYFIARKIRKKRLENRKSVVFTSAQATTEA
UniProt P62942, sequence (whole entry, looked up): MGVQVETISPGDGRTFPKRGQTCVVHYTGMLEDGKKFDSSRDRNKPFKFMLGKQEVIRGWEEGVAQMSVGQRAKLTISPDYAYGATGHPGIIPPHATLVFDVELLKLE
UniProt P08238, sequence (whole entry, looked up): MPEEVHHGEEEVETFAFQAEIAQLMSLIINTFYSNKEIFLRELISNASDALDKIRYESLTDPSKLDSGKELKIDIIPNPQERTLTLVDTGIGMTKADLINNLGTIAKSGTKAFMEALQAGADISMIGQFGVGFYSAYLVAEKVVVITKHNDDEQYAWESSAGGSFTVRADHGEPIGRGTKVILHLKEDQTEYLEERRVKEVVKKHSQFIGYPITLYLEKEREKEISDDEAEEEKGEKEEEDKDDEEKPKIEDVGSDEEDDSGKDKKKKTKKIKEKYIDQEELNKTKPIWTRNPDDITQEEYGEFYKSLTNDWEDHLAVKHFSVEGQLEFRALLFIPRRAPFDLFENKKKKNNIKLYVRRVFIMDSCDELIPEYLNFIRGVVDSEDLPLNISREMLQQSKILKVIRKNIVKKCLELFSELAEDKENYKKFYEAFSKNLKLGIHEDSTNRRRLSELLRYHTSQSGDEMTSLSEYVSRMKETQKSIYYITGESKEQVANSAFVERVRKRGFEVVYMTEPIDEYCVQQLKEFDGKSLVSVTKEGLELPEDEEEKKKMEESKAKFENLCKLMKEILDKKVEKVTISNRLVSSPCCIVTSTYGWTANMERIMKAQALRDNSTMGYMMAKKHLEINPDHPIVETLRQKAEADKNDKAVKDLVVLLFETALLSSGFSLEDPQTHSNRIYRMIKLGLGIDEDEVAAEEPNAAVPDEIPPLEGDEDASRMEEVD
UniProt O75676, sequence (whole entry, looked up): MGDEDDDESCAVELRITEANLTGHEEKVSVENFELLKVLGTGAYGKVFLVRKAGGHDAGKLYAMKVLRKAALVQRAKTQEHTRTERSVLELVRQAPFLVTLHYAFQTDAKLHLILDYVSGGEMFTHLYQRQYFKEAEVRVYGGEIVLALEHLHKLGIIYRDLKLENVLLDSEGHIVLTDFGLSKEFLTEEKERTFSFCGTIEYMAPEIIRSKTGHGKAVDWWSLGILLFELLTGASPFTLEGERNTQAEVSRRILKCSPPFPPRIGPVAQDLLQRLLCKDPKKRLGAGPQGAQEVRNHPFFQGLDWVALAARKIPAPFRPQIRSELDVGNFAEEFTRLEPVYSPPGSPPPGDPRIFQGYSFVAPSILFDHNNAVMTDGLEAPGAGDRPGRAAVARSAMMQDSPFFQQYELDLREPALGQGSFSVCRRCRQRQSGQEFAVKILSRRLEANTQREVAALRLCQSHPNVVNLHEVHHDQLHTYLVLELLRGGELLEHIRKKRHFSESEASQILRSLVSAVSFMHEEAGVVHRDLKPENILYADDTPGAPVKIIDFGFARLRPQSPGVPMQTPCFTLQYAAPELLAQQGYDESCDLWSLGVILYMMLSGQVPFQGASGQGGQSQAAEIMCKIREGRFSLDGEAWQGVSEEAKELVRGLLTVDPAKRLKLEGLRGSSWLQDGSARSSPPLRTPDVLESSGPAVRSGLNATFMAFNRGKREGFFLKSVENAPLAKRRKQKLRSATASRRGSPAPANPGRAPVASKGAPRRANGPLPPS
UniProt P07451, sequence (whole entry, looked up): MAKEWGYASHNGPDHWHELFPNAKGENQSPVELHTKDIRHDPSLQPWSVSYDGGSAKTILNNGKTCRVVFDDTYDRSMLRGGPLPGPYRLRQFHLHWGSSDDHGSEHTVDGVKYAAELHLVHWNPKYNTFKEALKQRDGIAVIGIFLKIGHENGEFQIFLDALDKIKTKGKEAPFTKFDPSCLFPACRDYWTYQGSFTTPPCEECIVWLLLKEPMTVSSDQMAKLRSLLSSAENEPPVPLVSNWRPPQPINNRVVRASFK

SMILES = CCc1nc2cc3ccccc3cc2cc1C(=O)N1CCC[C@H]1C(=O)N[C@@H](C/C=C\C[C@H](NC(=O)[C@@H]1CCCN1C(=O)c1cc2cc3ccccc3cc2nc1CC)C(=O)N[C@@H](CCCCN)C(=O)NCCCN)C(=O)N[C@@H](CCCCN)C(=O)NCCCN; tested on = (CUG)10 RNA; test = SPR; quantity = Kd; result = 40 nM
SMILES = COc1ccc(-c2coc3cc(O)cc(O)c3c2=O)cc1; tested on = HSD3B1 (Homo sapiens, UniProt P14060); test = binding, SPR; quantity = Kd; result = 17900 nM
SMILES = CCc1nc2cc3ccccc3cc2cc1C(=O)N[C@@H](CCCCN)C(=O)N[C@@H](C/C=C/C[C@H](NC(=O)[C@H](CCCCN)NC(=O)c1cc2cc3ccccc3cc2nc1CC)C(=O)N1CCC[C@H]1C(=O)NCCCN)C(=O)N1CCC[C@H]1C(=O)NCCCN; tested on = (CUG)10 RNA; test = SPR; quantity = Kd; result = 118 nM
SMILES = Cc1c[nH]c2nccc(-c3ccc(C(=O)N[C@@H]4c5c(F)cc(C(F)F)cc5C[C@@H]4O)cn3)c12; tested on = Ribosomal protein S6 kinase alpha-4, C-terminal kinase domain (RPS6KA4, Homo sapiens, UniProt O75676); test = binding, competition with immobilised ligand; quantity = Kd; result = 3000 nM
SMILES = Cc1ncsc1-c1ccc(C(C)NC(=O)C2CC(O)CN2C(=O)C(NC(=O)CCCCCCCCCCN2CCCC(Nc3ncc(Cl)c(Nc4ccccc4S(=O)(=O)C(C)C)n3)C2)C(C)(C)C)cc1 (centres unmarked); tested on = 22Rv1; test = RNA-seq, measured: OSGIN1 mRNA; conditions = concentration not given; how to read = reference: DMSO; quantity = log2 fold change; result = -2.17
SMILES = CN(C)c1ccc(/C=C/c2cc(/C=C3\Sc4ccccc4N3CCCN3CCCC3)c3ccccc3[n+]2C)cc1; tested on = Pu22 DNA; test = isothermal titration calorimetry; conditions = pH 7.4, 25 °C, 2% DMSO; quantity = Kd; result = 13000 nM
SMILES = CNS(=O)(=O)Nc1nccc(Cc2c(C)c3ccc(Oc4ncccc4F)cc3oc2=O)c1F; tested on = C8166-CD4; test = cell viability, CellTiter-Glo; conditions = 7 days; quantity = IC50; result = 6.23 nM
SMILES = NCCCC[C@H](NC(=O)[C@H](C/C=C\C[C@H](NC(=O)[C@@H]1CCCN1)C(=O)N[C@@H](CCCCN)C(=O)NCCCN)NC(=O)[C@@H]1CCCN1)C(=O)NCCCN; tested on = (CUG)10 RNA; test = SPR; quantity = Kd; result = 263 nM
SMILES = Cc1c2ccnc(C(=O)N[C@H](C)CN(C)C)c2cc2c3cc(OCCCN4CCN(C)CC4)ccc3n(C)c12; tested on = r(GGC)16 RNA; test = binding, microscale thermophoresis; quantity = Kd; result = 912 ± 328 nM
SMILES = NS(=O)(=O)c1cc(C(=O)NCCCC(=O)O)c(NC2CCCCC2)cc1Cl; tested on = CA3 (Homo sapiens, UniProt P07451); conditions = pH 7; quantity = Kd; result = > 200000 nM
SMILES = CCCCCCCO[C@H]1CO[C@H](CO)[C@@H](O)[C@H](O)[C@@H]1O; tested on = fimH lectin domain; test = binding, isothermal titration calorimetry; conditions = 25 °C, global fit, two runs; quantity = Kd; result = 264 nM
SMILES = O=C(CCc1ccc2n1[B-](F)(F)[N+]1=C(c3ccc[nH]3)C=CC1=C2)NCCCn1cc(COC[C@H]2CN(Cc3ccccn3)C(=O)[C@@H]3CCC[C@H]2N3S(=O)(=O)c2cc(Cl)cc(Cl)c2)nn1; tested on = FKBP1A (Homo sapiens, UniProt P62942); test = binding, FP; quantity = Kd; result = 3 nM
SMILES = NNc1ccc(C(=O)N2CCN(C(=O)c3cc(Cc4n[nH]c(=O)c5ccccc45)ccc3F)CC2)cn1; tested on = PARP1 (Homo sapiens, UniProt P09874); test = binding, SPR; quantity = Kd; result = 83.8 nM
SMILES = COC(=O)CCCNC(=O)c1cc(S(N)(=O)=O)c(Cl)cc1NC1CCCCC1; tested on = CA14 (Homo sapiens, UniProt Q9ULX7); conditions = pH 7; quantity = Kd; result = 50 nM
SMILES = Cn1ncc2cc(-c3cncc(Cl)c3N3CCC4(CCNC4=O)CC3)ccc21; tested on = CDC42BPA (Homo sapiens, UniProt Q5VT25); test = cell-free assay; conditions = lysate; quantity = Kd; result = 5550 nM
SMILES = CCCC[C@@H]1NC(=O)[C@H](Cc2ccc(O)cc2)NC(=O)[C@@H]2CCCN2C(=O)[C@H](CC(=O)O)NC(=O)[C@H](C)NC(=O)[C@H](Cc2ccccc2)NC(=O)[C@@H]2CSCCC(=O)N3CN(CN(C3)C(=O)CCSC[C@@H](C(=O)N[C@@H](C)C(N)=O)NC1=O)C(=O)CCSC[C@H](NC(C)=O)C(=O)N[C@@H](CC(C)(C)C)C(=O)N1CCC[C@H]1C(=O)N[C@@H](CCC(=O)O)C(=O)N[C@H](CCCCNC(=O)CCc1cn(CCOCCOCCOCCN(CCOCCOCCOCCC(=O)N[C@H]3CSCCC(=O)N4CN5CN(C4)C(=O)CCSC[C@H](NC(=O)[C@@H](CC(=O)O)NC(=O)[C@H](Cc4cccc6ccccc46)NC(=O)[C@@H]4CCCN4C3=O)C(=O)N[C@@H](CCSC)C(=O)N[C@@H](CCCCNC(=N)N)C(=O)N[C@@H](CC(=O)O)C(=O)N[C@@H](Cc3c[nH]c4ccccc34)C(=O)N[C@@H](CO)C(=O)N[C@@H]([C@@H](C)O)C(=O)N3CCC[C@H]3C(=O)N3C[C@H](O)C[C@H]3C(=O)N[C@@H](Cc3c[nH]c4ccccc34)C(=O)N[C@H](C(N)=O)CSCCC5=O)CCOCCOCCOCCn3cc(CCC(=O)NCCCC[C@H]4NC(=O)[C@H](CCC(=O)O)NC(=O)[C@@H]5CCCN5C(=O)[C@H](CC(C)(C)C)NC(=O)[C@@H](NC(C)=O)CSCCC(=O)N5CN6CN(C5)C(=O)CCSC[C@H](NC(=O)[C@H](Cc5ccc(O)cc5)NC(=O)[C@@H]5CCCN5C4=O)C(=O)N[C@@H](Cc4ccccc4)C(=O)N[C@@H](C)C(=O)N[C@@H](CC(=O)O)C(=O)N4CCC[C@H]4C(=O)N[C@@H](Cc4ccc(O)cc4)C(=O)N[C@@H](CCCC)C(=O)N[C@H](C(=O)N[C@@H](C)C(N)=O)CSCCC6=O)nn3)nn1)C(=O)N1CCC[C@H]1C(=O)N[C@@H](Cc1ccc(O)cc1)C(=O)N2; tested on = Nectin-3 (NECTIN3, Homo sapiens, UniProt Q9NQS3); test = SPR; quantity = Kd; result = > 200 nM
SMILES = CCCCCCCO[C@H]1O[C@H](CO)[C@@H](O)[C@H](O)[C@@H]1O; tested on = fimH lectin domain; test = binding, isothermal titration calorimetry; conditions = 37 °C, individual titrations; quantity = Kd; result = 38.6 nM and 34.4 nM
SMILES = CCCc1cc2cc(-n3nc(C4CC4(F)F)c4c3CC(C)(C)CC4=O)cc(N3CCC(O)CC3)c2c(=O)[nH]1 (racemic); tested on = HSP90AB1 (Homo sapiens, UniProt P08238); test = fluorescence polarization; conditions = 24 h, 4 °C, together with: FITC-geldanamycin tracer; quantity = Kd; result = 1810 nM
SMILES = CN1CCCNC(=O)c2cccc(c2)C(=O)NCCCN(C)CCCNc2cccc3c2C(=O)c2cccc(c2C3=O)NCCC1; tested on = SAS; test = RNA-Seq, measured: PNN mRNA; conditions = 1 µM, 24 h; how to read = reference: untreated cells; quantity = log2 fold change; result = 0.193
SMILES = C=CC(=O)N1CC2(CCN(c3nc(OC4CCN(CCCOC)CC4)nc4c(OCC(F)(F)F)c(-c5c(C)ccc6[nH]ncc56)c(C5CC5)cc34)CC2)C1; tested on = GTPase KRas, GDP-bound (KRAS, Homo sapiens, UniProt P01116, Q61R); test = SPR; quantity = Kd; result = 822 ± 120 nM
SMILES = CCc1nc2cc3ccccc3cc2cc1C(=O)N1CCC[C@H]1C(=O)N[C@@H](CCC/C=C\CCC[C@H](NC(=O)[C@@H]1CCCN1C(=O)c1cc2cc3ccccc3cc2nc1CC)C(=O)N[C@@H](CCCCN)C(=O)NCCCN)C(=O)N[C@@H](CCCCN)C(=O)NCCCN; tested on = (CUG)10 RNA; test = SPR; quantity = Kd; result = 78.7 nM
SMILES = Cn1ncc2cc(CN3CCC(F)(F)C(COc4ccc(F)c(F)c4)C3)ccc21 (centres unmarked); tested on = DRD4; test = ligand displacement, radioligand; conditions = cell membranes; quantity = Ki; result = 10.8 nM
SMILES = O=C(O)Cc1ccccc1Nc1c(Cl)cccc1Cl; tested on = TOPBP1; test = binding, NMR; quantity = Kd; result = 200000 nM
SMILES = C[N+]1(C)CCCC1; tested on = Chrnd/Chrna1/Chrne (Mus musculus, UniProt P02716+P04756+P20782, G173K/S470W); test = single-channel kinetics; conditions = K chain side site; quantity = Kd; result = 227000 nM
SMILES = COC1CN([C@H]2CC[C@H]([C@@]3(C)Oc4c(Cl)cc(C(=O)NCc5c(SC)cc(C)[nH]c5=O)c(C)c4O3)CC2)C1; test = RNA-seq, measured: PITHD1; test system = human, whole blood; conditions = dose not given, 24 h; how to read = reference: pretreatment baseline; quantity = log2 fold change; result = 1.43
SMILES = O=C(O)CC12CC3CC(CC(C3)C1)C2; tested on = TOPBP1; test = binding, NMR; quantity = Kd; result = 120000 nM
SMILES = COc1ccc(CN2CCC(F)(F)C(COc3cccc(F)c3)C2)cc1F (centres unmarked); tested on = DRD4; test = ligand displacement, radioligand; conditions = cell membranes; quantity = Ki; result = 26.9 nM
SMILES = CC(C)(C)n1cc(CN(Cc2cn(CC(=O)O)nn2)Cc2cn(C(C)(C)C)nn2)nn1; tested on = copper(I); test = bicinchoninic acid competition; quantity = Kd; result = 0.121 ± 0.0168 nM
SMILES = CC(C)C[C@@H]1NC(=O)[C@@H]2CSCCC(=O)N3CN(CN(C3)C(=O)CCSC[C@H](NC(=O)[C@H](CC(=O)O)NC(=O)[C@H](CCCCNC(=N)N)NC(=O)[C@H](C)NC(=O)CN(C)C(=O)CN(C)C(=O)CN(C)C(=O)CN(C)C(=O)CN(C)C(=O)CN(C)C(=O)CN(C)C(=O)CN(C)C(=O)CN(C)C(=O)CN(C)C(=O)CCN)C(=O)N3C[C@H](O)C[C@H]3C(=O)N[C@@H](CC(C)C)C(=O)N[C@@H](C(C)C)C(=O)N[C@@H](CC(N)=O)C(=O)N3CCC[C@H]3C(=O)N[C@@H](CC(C)C)C(=O)N2)C(=O)CCSC[C@@H](C(N)=O)NC(=O)[C@H](CCCCNC(=N)N)NC(=O)[C@H](Cc2c[nH]c3ccccc23)NC(=O)[C@@H](CC(=O)O)NC(=O)[C@@H]2CCCN2C(=O)[C@H](Cc2c[nH]cn2)NC1=O; tested on = EPHA2 (Homo sapiens, UniProt P29317); test = binding, SPR; quantity = Kd; result = 1.7 nM

Repeated from above:
SMILES = CNS(=O)(=O)Nc1nccc(Cc2c(C)c3ccc(Oc4ncccc4F)cc3oc2=O)c1F; tested on = C8166-CD4; test = cell viability, CellTiter-Glo; conditions = 7 days; quantity = IC50; result = 6.23 nM
SMILES = NCCCC[C@H](NC(=O)[C@H](C/C=C\C[C@H](NC(=O)[C@@H]1CCCN1)C(=O)N[C@@H](CCCCN)C(=O)NCCCN)NC(=O)[C@@H]1CCCN1)C(=O)NCCCN; tested on = (CUG)10 RNA; test = SPR; quantity = Kd; result = 263 nM
SMILES = Cc1c2ccnc(C(=O)N[C@H](C)CN(C)C)c2cc2c3cc(OCCCN4CCN(C)CC4)ccc3n(C)c12; tested on = r(GGC)16 RNA; test = binding, microscale thermophoresis; quantity = Kd; result = 912 ± 328 nM
SMILES = NS(=O)(=O)c1cc(C(=O)NCCCC(=O)O)c(NC2CCCCC2)cc1Cl; tested on = CA3 (Homo sapiens, UniProt P07451); conditions = pH 7; quantity = Kd; result = > 200000 nM
